Measurements of several laboratories.
A part holds a random share of what one study measured.
Chain of UniProt O96013 (whole entry, looked up): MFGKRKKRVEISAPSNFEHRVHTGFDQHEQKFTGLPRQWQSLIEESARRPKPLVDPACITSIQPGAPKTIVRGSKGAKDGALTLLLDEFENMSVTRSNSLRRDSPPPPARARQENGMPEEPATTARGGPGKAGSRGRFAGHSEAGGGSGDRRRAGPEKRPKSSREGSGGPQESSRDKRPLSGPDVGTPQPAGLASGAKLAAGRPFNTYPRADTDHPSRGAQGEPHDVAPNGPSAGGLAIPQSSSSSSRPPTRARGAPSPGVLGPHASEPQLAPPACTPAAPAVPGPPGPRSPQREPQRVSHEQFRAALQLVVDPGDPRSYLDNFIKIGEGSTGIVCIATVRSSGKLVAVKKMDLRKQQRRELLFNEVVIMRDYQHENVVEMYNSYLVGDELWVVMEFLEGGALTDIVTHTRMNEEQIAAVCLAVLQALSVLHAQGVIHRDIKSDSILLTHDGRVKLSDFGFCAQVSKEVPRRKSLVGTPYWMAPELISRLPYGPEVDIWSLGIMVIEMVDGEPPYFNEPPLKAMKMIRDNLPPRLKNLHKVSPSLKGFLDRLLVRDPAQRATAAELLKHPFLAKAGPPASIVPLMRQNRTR
Chain of UniProt P07333 (whole entry, looked up): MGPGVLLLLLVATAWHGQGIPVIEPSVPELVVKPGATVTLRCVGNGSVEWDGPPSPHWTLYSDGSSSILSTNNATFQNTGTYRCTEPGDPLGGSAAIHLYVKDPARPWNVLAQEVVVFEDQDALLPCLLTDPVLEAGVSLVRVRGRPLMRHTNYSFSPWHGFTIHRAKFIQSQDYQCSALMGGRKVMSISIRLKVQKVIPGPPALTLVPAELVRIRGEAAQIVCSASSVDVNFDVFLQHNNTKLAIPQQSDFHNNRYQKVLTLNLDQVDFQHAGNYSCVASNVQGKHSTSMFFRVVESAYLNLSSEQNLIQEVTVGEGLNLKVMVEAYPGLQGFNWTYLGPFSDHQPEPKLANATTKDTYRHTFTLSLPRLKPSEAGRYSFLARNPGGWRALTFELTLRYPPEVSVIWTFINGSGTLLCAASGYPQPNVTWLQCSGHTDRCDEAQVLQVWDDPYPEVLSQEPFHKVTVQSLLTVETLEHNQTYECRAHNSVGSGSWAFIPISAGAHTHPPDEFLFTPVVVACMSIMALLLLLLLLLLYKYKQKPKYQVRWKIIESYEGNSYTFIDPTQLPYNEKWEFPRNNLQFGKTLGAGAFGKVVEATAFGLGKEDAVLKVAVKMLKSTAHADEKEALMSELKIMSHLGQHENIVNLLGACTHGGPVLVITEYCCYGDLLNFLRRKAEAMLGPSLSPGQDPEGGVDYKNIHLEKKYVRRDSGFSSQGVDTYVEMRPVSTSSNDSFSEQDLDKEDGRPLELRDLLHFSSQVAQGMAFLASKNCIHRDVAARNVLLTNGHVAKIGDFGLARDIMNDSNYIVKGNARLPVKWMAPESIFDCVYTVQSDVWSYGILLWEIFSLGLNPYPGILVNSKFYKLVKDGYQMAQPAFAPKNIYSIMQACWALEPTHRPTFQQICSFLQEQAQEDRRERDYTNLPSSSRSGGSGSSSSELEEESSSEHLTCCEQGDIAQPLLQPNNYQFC
Chain of UniProt Q16620 (whole entry, looked up): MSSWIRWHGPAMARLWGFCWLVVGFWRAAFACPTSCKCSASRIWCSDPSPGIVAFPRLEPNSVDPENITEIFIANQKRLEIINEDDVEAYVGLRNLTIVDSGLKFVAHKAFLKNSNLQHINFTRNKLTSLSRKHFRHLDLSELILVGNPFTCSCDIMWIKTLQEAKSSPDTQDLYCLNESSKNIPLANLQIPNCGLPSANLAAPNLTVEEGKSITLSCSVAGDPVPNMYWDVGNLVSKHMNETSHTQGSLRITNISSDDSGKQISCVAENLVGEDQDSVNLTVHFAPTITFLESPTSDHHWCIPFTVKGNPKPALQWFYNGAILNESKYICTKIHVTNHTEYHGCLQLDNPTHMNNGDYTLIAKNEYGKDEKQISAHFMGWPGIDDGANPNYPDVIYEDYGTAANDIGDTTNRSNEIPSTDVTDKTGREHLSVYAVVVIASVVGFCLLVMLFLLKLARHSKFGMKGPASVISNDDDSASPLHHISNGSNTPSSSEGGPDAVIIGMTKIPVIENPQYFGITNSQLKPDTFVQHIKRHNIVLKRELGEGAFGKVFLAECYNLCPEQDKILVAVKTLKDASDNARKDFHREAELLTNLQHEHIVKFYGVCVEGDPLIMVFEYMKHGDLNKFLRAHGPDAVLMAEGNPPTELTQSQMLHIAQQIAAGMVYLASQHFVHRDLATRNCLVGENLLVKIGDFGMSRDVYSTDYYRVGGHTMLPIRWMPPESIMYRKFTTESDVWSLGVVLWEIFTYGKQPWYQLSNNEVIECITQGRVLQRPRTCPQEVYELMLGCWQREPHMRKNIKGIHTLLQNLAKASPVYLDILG
Chain of UniProt Q9HBH9 (whole entry, looked up): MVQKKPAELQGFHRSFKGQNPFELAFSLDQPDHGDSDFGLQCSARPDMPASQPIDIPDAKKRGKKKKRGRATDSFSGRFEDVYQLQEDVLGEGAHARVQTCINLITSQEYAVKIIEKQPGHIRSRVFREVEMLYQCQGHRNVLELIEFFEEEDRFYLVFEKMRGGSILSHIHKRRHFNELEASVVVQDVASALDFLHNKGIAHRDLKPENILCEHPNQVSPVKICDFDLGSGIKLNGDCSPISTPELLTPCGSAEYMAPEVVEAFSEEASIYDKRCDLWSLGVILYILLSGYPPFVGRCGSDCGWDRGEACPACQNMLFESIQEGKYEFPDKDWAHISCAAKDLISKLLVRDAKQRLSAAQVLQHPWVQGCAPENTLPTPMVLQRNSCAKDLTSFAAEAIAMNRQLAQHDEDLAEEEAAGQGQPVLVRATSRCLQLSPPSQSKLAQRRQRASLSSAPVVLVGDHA
Chain of UniProt P11309 (whole entry, looked up): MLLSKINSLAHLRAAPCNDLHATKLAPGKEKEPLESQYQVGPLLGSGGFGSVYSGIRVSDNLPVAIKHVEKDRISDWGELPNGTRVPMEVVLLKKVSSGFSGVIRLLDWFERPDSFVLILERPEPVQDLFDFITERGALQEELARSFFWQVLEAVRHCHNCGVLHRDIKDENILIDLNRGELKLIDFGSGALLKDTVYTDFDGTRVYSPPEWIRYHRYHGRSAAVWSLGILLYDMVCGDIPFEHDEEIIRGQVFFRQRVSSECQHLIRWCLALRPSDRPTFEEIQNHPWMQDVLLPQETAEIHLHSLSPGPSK
Chain of UniProt P50613 (whole entry, looked up): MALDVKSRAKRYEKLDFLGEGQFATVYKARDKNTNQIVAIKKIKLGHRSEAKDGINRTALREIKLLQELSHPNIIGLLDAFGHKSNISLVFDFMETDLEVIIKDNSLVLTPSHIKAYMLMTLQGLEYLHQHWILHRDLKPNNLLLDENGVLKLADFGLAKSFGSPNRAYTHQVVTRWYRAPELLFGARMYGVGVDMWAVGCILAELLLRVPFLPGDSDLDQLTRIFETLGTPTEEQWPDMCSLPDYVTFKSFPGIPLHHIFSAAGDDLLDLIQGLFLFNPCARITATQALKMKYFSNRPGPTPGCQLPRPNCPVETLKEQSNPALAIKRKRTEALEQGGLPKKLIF
Chain of UniProt Q59H18 (whole entry, looked up): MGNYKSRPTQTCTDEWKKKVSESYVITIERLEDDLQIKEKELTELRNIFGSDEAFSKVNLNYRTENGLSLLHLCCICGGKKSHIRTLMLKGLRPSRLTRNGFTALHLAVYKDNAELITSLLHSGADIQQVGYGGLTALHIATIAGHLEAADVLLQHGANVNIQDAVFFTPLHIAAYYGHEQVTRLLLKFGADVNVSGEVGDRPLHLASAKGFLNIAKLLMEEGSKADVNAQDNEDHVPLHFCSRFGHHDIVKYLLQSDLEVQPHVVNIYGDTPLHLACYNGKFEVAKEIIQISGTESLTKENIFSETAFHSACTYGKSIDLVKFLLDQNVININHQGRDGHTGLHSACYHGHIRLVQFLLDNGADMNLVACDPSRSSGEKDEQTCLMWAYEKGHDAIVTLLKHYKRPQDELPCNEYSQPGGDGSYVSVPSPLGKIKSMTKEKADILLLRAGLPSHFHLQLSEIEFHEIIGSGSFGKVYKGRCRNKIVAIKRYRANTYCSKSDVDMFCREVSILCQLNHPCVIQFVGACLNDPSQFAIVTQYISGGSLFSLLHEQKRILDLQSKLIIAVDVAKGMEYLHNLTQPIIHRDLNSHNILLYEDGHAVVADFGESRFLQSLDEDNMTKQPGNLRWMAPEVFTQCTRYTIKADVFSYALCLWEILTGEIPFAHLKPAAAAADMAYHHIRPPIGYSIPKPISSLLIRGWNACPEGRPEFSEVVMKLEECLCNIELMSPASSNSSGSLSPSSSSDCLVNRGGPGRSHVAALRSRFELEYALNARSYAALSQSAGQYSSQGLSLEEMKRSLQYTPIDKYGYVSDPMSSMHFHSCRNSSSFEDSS

Series 1
Target: cAMP-dependent protein kinase catalytic subunit gamma (PRKACG, Homo sapiens, UniProt P22612)
Chain of UniProt P22612 (whole entry, looked up): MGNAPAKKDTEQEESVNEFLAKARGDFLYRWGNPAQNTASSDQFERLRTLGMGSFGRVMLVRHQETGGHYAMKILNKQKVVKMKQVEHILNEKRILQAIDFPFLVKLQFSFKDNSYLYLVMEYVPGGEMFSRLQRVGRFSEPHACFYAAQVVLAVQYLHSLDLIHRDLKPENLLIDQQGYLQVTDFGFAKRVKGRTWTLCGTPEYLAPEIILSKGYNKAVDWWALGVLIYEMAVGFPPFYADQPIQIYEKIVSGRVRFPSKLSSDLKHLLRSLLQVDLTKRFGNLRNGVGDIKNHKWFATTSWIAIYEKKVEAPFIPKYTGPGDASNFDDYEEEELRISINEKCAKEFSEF
Observed: enzyme activity
Action: inhibitor
Tested at: 0.5 µM
Baseline: control
SMILES	remaining activity [%]
O=C(O)c1ccc2c3c1cccc3c(=O)n1c3ccccc3nc21	127
CNC(=O)c1cc(Oc2ccc(NC(=O)Nc3ccc(Cl)c(C(F)(F)F)c3)cc2)ccn1	100
C#Cc1cccc(Nc2ncnc3cc(OCCOC)c(OCCOC)cc23)c1	108
N#CC(C#N)=C(N)/C(C#N)=C/c1ccc(O)cc1	96.8
COc1cc2ncnc(Nc3ccc(F)c(Cl)c3)c2cc1OCCCN1CCOCC1	107
Nc1ccc2ncnc(NCCc3ccc(Oc4ccccc4)cc3)c2c1	110
Oc1ccc(-c2nc(-c3ccncc3)c(-c3ccc(F)cc3)[nH]2)cc1	78.4
Cc1nc(-c2ccccc2)c(-c2ccncc2)o1	108
O=C(CCCc1ccc(-c2ccccc2F)cc1)Nc1ccc(O)cc1	93.5
O=C1NC(=O)C(c2cn(CCCn3ccnc3)c3ccccc23)=C1Nc1ccccc1	117
COc1cc2ncnc(Nc3ccc(Oc4ccccc4)cc3)c2cc1OC	137
CCOC(=O)c1c(C)[nH]c(/C=C2\C(=O)Nc3ccccc32)c1C	88.4
Cc1ccc(Nc2nccc(N(C)c3ccc4c(C)n(C)nc4c3)n2)cc1S(N)(=O)=O	111
Nc1ncnc2n[nH]c(Nc3ccc(F)cc3)c12	96.2
Cc1ccc(NC(=O)c2ccc(CN3CCN(C)CC3)cc2)cc1Nc1nc(-c2cccnc2)cs1	110
CO[C@H]1C[C@@H]2CC[C@@H](C)[C@@](O)(O2)C(=O)C(=O)N2CCCC[C@H]2C(=O)O[C@H]([C@H](C)C[C@@H]2CC[C@@H](O)[C@H](OC)C2)CC(=O)[C@H](C)/C=C(\C)[C@@H](O)[C@@H](OC)C(=O)[C@H](C)C[C@H](C)/C=C/C=C/C=C/1C	113
COc1cc2nccc(Oc3ccc(NC(=S)NC(=O)c4ccccc4C)cc3)c2cc1OC	107

Series 2
Compound: Cc1c(NC(=O)c2cc(C(N)=O)nc3cc(F)ccc23)c(C(F)(F)F)nn1Cc1ccc(C#N)cc1
Observed: cell-free assay
Method: competition with immobilised ligand
Tested at: 1 µM
target	remaining binding [%]
RET (Homo sapiens, UniProt P07949, M918T)	96
CAMK1 (Homo sapiens, UniProt Q14012)	100
Macrophage colony-stimulating factor 1 receptor, autoinhibited (CSF1R, Homo sapiens, UniProt P07333)	100
TNNI3K (Homo sapiens, UniProt Q59H18)	100
PRKG2 (Homo sapiens, UniProt Q13237)	74
CAMK2B (Homo sapiens, UniProt Q13554)	90
HIPK3 (Homo sapiens, UniProt Q9H422)	85

Series 3
Host: mouse
Sample: microsomes or S9
Tested at: 2 µM
Time: 0.5 h
Structure (SMILES)	remaining compound [%]
CCN1CCN(c2nc(-c3ccc(C)cc3)cc3cc(C)ccc23)CC1	1.43
CCN1CCN(C(=O)c2cc3c(=O)n4cc(C)ccc4nc3n2C)CC1	57.4
Cc1cc(Cl)ccc1NS(=O)(=O)c1cc(-c2ccc(=O)n(-c3c(C)noc3C)n2)ccc1C	5.48
Cc1cc(C(F)(F)F)nc(OCCCC#N)c1C(=O)C1C(=O)C2CCC(C2)C1=O (stereo not drawn)	85.4
O=C1CCCc2nc(Nc3ccc(F)cc3)ncc21	1.91
Cn1nc(CNC(=O)Cn2nc(C(F)(F)F)c3c2CCC3)c(Cl)c1Cl	1.56
O=C(CN1CCOCC1)N1CCC(c2nc(-c3ccccc3)no2)C1 (stereo not drawn)	66.1
Cc1ccc(-c2nnc(C(C)N3CCc4sccc4C3)o2)cc1 (stereo not drawn)	0.241
COc1ccc(-c2cc(CNC(=O)c3ccc(=O)[nH]n3)no2)cc1OC	81.8
CCC(CC)CN1CC2(CCN(C(=O)[C@@H]3C[C@H](N)CN3C)CC2)OC1=O	> 100

Series 4
Compound: O=C(Nc1cnn(-c2csc(C(=O)NC3COC3)c2)c1)Nc1ccccc1Cl
Observed: enzyme activity
Tested at: 5 µM
Baseline: untreated control
target	remaining activity
MAP3K11 (Homo sapiens, UniProt Q16584)	92.6%
NTRK2 (Homo sapiens, UniProt Q16620)	83.8%
PIM1 (Homo sapiens, UniProt P11309)	64.4%
CDK7 (Homo sapiens, UniProt P50613)	96.6%
MKNK2 (Homo sapiens, UniProt Q9HBH9)	96.8%
PAK4 (Homo sapiens, UniProt O96013)	92.2%
PIM3 (Homo sapiens, UniProt Q86V86)	60.5%
MYLK (Homo sapiens, UniProt Q15746)	94.4%

Some of these lines once more (series 1):
SMILES	remaining activity [%]
N#CC(C#N)=C(N)/C(C#N)=C/c1ccc(O)cc1	96.8
COc1cc2ncnc(Nc3ccc(F)c(Cl)c3)c2cc1OCCCN1CCOCC1	107
Nc1ccc2ncnc(NCCc3ccc(Oc4ccccc4)cc3)c2c1	110
Oc1ccc(-c2nc(-c3ccncc3)c(-c3ccc(F)cc3)[nH]2)cc1	78.4
Cc1nc(-c2ccccc2)c(-c2ccncc2)o1	108
